Measurements from different studies.
Each line is one published result; not all experiments were run side by side.

technique | matrix | time | endpoint | result | Structure (SMILES)
absorbance |  |  | logP | 1.03 | O=C(NCCN1CCOCC1)c1cc2c3ccccc3n3c(=O)ccc(n1)c23
 |  |  | logP | 3.45 | COC(=O)C1=CNC=C(C(=O)OC)C1c1ccc(F)c(C(F)(F)F)c1
shake flask | water | 24 h | logP | -1.27 | CCCCCNCC(=O)O
shake flask | water |  | logP | 1.11 | COc1ccc(-c2csc(N/N=C(\C)c3cc(O)cc(O)c3)n2)cc1
shake flask | water |  | logP | 2.23 | O=C1Nc2ccccc2C1=NN=Cc1ccc(F)cc1
shake flask |  |  | logP | 2.8 | COc1ccc(-n2c(=O)c(C(=O)C3C(=O)CCCC3=O)nc3c(C)cccc32)cc1
shake flask | water | 24 h | logP | -1.47 | CCC(C)NCC(=O)O (stereo not shown)
shake flask |  |  | logP | 2.6 | COc1ccc(-n2c(=O)c(C(=O)C3C(=O)CCCC3=O)nc3ccccc32)cc1
shake flask | water | 24 h | logP | 0.24 | CCCCCCCCNCC(=O)O
HPLC |  |  | chromatographic logP | 2.9 | CC1=CC(C)=[N+]2C1=Cc1ccc(CCC(=O)N3CCN(C(=O)c4cc(Cc5n[nH]c(=O)c6ccccc56)ccc4F)CC3)n1[B-]2(F)F
